Measured values gathered from unrelated publications.
Numbered parts are unrelated; each lists some results of a single study.
Sequence of UniProt Q13464 (whole entry, looked up): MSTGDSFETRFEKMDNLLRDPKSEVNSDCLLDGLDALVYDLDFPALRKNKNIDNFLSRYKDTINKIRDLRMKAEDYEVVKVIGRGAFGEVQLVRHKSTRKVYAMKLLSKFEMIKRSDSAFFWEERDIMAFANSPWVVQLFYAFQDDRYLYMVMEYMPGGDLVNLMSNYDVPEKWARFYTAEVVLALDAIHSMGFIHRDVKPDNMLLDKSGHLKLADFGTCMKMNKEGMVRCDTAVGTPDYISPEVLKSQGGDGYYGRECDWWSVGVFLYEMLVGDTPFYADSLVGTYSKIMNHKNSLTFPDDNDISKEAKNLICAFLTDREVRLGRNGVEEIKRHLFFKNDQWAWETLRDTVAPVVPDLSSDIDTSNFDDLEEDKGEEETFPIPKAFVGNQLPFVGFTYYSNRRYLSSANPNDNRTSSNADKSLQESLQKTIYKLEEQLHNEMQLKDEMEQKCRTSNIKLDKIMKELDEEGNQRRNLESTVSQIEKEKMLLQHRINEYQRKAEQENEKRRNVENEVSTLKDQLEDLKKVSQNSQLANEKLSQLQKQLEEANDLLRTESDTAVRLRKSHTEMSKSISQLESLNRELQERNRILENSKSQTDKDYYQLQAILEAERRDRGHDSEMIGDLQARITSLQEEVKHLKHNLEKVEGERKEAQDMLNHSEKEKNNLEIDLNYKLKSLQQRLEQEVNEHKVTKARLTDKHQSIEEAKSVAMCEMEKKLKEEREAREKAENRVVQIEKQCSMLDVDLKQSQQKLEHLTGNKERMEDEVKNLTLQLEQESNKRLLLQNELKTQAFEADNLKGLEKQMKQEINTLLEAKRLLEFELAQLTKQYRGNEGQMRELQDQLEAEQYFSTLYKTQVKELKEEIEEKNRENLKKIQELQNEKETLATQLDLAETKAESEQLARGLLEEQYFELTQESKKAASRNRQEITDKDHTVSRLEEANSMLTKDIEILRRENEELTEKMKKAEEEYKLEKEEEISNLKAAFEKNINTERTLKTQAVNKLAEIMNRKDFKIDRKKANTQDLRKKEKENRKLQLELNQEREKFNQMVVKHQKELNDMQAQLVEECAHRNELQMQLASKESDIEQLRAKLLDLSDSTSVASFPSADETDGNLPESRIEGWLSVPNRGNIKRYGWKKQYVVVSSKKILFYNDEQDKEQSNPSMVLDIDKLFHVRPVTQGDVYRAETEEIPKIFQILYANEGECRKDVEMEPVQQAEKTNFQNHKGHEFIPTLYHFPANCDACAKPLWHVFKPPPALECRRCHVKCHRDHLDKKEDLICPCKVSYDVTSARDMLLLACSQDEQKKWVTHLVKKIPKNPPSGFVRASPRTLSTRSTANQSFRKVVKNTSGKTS
Sequence of UniProt P42681 (whole entry, looked up): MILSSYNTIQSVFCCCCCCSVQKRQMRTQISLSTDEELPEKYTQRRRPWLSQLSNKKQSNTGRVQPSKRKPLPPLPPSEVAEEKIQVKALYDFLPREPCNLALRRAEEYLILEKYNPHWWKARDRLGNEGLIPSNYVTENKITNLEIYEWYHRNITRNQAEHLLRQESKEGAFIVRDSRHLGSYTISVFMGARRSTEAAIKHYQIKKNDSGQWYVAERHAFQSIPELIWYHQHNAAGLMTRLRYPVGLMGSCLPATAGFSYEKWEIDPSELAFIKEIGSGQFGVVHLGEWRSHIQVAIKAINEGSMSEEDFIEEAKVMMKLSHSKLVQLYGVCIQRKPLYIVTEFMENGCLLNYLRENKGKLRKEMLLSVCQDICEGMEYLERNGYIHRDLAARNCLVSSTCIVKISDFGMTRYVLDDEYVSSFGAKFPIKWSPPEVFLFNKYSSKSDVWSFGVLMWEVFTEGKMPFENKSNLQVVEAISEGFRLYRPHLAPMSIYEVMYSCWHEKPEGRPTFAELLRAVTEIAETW
Sequence of UniProt Q16566 (whole entry, looked up): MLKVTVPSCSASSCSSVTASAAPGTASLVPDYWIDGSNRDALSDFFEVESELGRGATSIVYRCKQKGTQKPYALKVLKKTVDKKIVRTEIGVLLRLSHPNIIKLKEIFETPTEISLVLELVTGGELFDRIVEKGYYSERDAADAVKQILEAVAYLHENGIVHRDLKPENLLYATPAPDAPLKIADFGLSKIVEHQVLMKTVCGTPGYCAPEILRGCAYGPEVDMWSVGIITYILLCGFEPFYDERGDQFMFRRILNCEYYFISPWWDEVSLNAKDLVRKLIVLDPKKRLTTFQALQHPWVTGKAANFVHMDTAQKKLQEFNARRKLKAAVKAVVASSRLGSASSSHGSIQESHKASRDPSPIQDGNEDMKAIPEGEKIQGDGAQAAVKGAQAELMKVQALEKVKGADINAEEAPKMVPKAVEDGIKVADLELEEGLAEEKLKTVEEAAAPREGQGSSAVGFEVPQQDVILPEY
Sequence of UniProt Q8WXR4 (whole entry, looked up): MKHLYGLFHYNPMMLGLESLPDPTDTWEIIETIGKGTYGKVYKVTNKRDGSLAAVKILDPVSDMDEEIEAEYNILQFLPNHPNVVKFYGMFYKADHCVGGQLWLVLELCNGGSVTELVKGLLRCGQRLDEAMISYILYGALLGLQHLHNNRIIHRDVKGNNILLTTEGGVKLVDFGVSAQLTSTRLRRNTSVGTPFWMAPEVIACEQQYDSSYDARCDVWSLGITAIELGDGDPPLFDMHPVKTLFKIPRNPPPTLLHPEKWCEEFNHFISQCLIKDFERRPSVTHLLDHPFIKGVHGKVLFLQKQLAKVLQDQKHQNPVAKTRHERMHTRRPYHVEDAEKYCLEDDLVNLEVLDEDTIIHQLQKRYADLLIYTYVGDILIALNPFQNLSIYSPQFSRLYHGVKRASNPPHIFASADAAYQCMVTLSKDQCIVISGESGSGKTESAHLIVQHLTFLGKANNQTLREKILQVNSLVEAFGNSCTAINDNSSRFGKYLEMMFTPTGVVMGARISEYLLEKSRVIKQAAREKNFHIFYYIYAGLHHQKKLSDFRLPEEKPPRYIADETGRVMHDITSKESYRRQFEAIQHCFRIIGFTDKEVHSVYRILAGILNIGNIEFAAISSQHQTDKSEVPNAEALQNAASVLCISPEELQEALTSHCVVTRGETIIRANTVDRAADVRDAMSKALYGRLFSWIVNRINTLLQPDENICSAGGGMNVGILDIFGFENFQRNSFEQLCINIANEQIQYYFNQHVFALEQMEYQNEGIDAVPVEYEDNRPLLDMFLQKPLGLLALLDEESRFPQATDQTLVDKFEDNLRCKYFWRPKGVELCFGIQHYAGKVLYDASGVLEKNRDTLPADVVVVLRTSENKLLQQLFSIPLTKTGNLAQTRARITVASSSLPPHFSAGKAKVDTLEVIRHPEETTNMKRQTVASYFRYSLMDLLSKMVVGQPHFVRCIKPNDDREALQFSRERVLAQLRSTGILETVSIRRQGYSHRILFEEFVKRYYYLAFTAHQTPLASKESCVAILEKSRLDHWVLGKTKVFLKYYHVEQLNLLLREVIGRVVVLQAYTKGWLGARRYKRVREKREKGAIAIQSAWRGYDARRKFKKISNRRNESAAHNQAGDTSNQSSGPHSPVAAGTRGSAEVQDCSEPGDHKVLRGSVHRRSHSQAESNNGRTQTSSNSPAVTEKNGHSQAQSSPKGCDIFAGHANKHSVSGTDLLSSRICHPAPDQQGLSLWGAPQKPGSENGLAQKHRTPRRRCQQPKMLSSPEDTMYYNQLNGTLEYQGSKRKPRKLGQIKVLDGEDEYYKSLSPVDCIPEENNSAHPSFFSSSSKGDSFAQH
Sequence of UniProt Q8N568 (whole entry, looked up): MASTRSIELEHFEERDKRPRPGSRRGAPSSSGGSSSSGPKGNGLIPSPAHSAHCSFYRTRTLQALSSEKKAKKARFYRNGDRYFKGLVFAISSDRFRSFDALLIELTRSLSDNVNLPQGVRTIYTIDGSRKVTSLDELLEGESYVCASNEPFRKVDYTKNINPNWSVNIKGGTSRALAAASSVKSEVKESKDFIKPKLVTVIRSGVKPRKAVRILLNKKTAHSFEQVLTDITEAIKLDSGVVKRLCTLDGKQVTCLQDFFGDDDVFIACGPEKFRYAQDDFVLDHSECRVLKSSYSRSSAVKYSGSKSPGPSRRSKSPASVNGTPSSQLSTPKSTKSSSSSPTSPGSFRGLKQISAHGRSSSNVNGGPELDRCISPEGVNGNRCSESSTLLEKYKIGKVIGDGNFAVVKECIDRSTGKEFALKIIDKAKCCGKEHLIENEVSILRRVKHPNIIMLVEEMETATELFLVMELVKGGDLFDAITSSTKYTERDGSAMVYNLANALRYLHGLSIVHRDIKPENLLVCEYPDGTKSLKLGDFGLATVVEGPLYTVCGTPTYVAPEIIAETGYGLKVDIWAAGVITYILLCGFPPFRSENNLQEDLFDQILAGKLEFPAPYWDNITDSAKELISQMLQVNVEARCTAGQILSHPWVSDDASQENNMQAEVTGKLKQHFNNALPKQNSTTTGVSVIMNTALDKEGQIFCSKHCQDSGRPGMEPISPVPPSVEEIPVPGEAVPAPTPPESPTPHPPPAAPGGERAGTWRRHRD

Block 1
Target: His6 tag
Technique: AlphaScreen counter screen
Concentration: concentration not given
| SMILES | inhibition [%] |
| --- | --- |
| Clc1cccc(Nc2cncc(-c3cccnc3)c2)c1 | 2.75 |
| Nc1nc(Nc2cccc(C(F)(F)F)c2)sc1C(=O)c1ccccc1 | -0.1 |
| COc1cccc(NC(=O)CSc2ccc3nnc(-c4ccc(Cl)cc4)n3n2)c1 | -6.2 |
| Cn1cnc2c(F)c(Nc3ccc(Br)cc3Cl)c(C(=O)NOCCO)cc21 | 7.4 |
| O=C(CSc1ccc2nnc(-c3cccc(F)c3)n2n1)N1CCOCC1 | 9.25 |
| COc1ccc(Cl)cc1C(=O)Nc1ccc2[nH]ncc2c1 | 8.65 |
| COc1ccc(C(=O)c2sc(Nc3cccc(C(F)(F)F)c3)nc2N)cc1 | 5.6 |

Block 2
Target: Alpha-1B adrenergic receptor (ADRA1B, Homo sapiens, UniProt P35368)
Sequence of UniProt P35368 (whole entry, looked up): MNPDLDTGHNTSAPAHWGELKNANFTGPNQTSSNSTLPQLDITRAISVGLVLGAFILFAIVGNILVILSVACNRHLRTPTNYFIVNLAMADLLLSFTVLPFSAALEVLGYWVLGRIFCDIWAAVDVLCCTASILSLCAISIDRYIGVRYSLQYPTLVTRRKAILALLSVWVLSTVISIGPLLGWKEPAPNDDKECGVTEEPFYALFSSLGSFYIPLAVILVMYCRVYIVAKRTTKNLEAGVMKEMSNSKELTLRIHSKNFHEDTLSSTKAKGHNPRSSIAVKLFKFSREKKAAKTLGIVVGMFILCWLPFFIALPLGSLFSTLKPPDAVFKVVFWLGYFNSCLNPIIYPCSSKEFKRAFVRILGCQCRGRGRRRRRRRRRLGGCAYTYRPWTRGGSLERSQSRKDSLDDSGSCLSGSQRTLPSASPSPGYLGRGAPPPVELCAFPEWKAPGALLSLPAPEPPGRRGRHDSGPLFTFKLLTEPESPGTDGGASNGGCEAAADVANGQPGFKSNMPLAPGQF
Observed: binding
Technique: radioligand binding
Concentration: 10 µM
| Structure (SMILES) | inhibition [%] |
| --- | --- |
| O=C(NC[C@@H]1[C@H]2CN(C(=O)OCc3cc(C(F)(F)F)cc(C(F)(F)F)c3)C[C@@H]12)c1ccc2[nH]nnc2c1 | 33.4 |
| COCc1nc2cnc3cc(-c4c(C)noc4C)c(OC[C@H]4CCNC4)cc3c2n1[C@H](C)c1ccccc1 | 4.2 |
| CNC(=O)Nc1ccc2c(c1)[C@]1(CC2)OC(=O)N(CC(=O)N(Cc2ccc(F)cc2)[C@@H](C)C(F)(F)F)C1=O | -1.33 |
| O=C([C@H]1C[C@H](O)CN1c1ccc(Cl)cc1)N1CC2COCC(C1)N2Cc1ccc(Cl)cc1 | 0.94 |
| O=C1CCc2cc(Nc3cc(OC4CCOCC4)c([N+](=O)[O-])cc3Cl)ccc2N1 | 17.2 |
| CN([C@@H]1CCc2c(CC(=O)O)c3cc(S(C)(=O)=O)ccc3n2C1)S(=O)(=O)c1ccc(F)cc1 | -10.6 |

Block 3
Cell line: HaCaT
Concentration: 100 µM
Time: 18 h
| Compound | viability [%] |
| --- | --- |
| CC1(C)O[C@@H]2[C@@H](CO[C@@]3(COS(N)(=O)=O)OC(C)(C)O[C@@H]23)O1 | 107 |
| CCCNC(C)C(=O)Nc1ccccc1C (stereo not drawn) | 110 |
| CC12CC3CC(C)(C1)CC(N)(C3)C2 | 100 |
| CN[C@@H]1[C@H](O[C@H]2[C@H](O[C@H]3[C@H](O)[C@@H](O)[C@H](NC(=N)N)[C@@H](O)[C@@H]3NC(=N)N)O[C@@H](C)[C@]2(O)CO)O[C@@H](CO)[C@H](O)[C@H]1O | 111 |

Block 4
SMILES: Cc1cn(-c2cc(NC(=O)c3ccc(C)c(Nc4nccc(-c5cccnc5)n4)c3)cc(C(F)(F)F)c2)cn1
Observed: enzyme activity
Mode: inhibitor
Concentration: 0.5 µM
Reference: control
| target | remaining activity [%] |
| --- | --- |
| Cyclin-dependent kinase 9, with cyclin K (CDK9, Homo sapiens, UniProt P50750) | 97.9 |
| Myosin-IIIb (MYO3B, Homo sapiens, UniProt Q8WXR4) | 85 |
| Calcium/calmodulin-dependent protein kinase type IV (CAMK4, Homo sapiens, UniProt Q16566) | 102 |
| Hepatocyte growth factor receptor (MET, Homo sapiens, UniProt P08581) | 95.8 |
| Serine/threonine-protein kinase MARK2 (MARK2, Homo sapiens, UniProt Q7KZI7) | 142 |
| Serine/threonine-protein kinase PAK 3 (PAK3, Homo sapiens, UniProt O75914) | 108 |
| Mitogen-activated protein kinase 14 (MAPK14, Homo sapiens, UniProt Q16539) | 23.3 |
| Misshapen-like kinase 1 (MINK1, Homo sapiens, UniProt Q8N4C8) | 113 |
| Serine/threonine-protein kinase DCLK2 (DCLK2, Homo sapiens, UniProt Q8N568) | 102 |
| Mitogen-activated protein kinase 1 (MAPK1, Homo sapiens, UniProt P28482) | 100 |
| Tyrosine-protein kinase TXK (TXK, Homo sapiens, UniProt P42681) | 104 |
| Rho-associated protein kinase 1 (ROCK1, Homo sapiens, UniProt Q13464) | 110 |
| Mitogen-activated protein kinase 11 (MAPK11, Homo sapiens, UniProt Q15759) | 15.3 |

Excerpt of the above (block 1):
| SMILES | inhibition [%] |
| --- | --- |
| Nc1nc(Nc2cccc(C(F)(F)F)c2)sc1C(=O)c1ccccc1 | -0.1 |
| COc1ccc(C(=O)c2sc(Nc3cccc(C(F)(F)F)c3)nc2N)cc1 | 5.6 |
| COc1ccc(Cl)cc1C(=O)Nc1ccc2[nH]ncc2c1 | 8.65 |
